Assay results of several laboratories.
Every numbered part comes from another study and shows a few of its results, in no order. Changes are numbered by the printed parent chain.

Study 1 — method: protein-binding microarray; molecule type: double-stranded DNA, one strand shown; sample: in vitro; tested at: 2200 nM top; setting: 60-bp whole probe; with: salmon DNA 0.4 mg/ml; reference: random background probes; reading: higher = stronger binding; endpoint: fitted relative affinity; shared flanks, not repeated: GCCTAGCAC … GTCTTGATTCGCTTGACGCTGCTG
Target: Interferon regulatory factor 7, full length, phosphomimetic (IRF7, Homo sapiens, UniProt Q92985, residues 1-503, S471D/S472D/S475D/S476D/S477D/S483D/S484D/S487D)
Sequence of UniProt Q92985 (whole entry, unmodified, looked up): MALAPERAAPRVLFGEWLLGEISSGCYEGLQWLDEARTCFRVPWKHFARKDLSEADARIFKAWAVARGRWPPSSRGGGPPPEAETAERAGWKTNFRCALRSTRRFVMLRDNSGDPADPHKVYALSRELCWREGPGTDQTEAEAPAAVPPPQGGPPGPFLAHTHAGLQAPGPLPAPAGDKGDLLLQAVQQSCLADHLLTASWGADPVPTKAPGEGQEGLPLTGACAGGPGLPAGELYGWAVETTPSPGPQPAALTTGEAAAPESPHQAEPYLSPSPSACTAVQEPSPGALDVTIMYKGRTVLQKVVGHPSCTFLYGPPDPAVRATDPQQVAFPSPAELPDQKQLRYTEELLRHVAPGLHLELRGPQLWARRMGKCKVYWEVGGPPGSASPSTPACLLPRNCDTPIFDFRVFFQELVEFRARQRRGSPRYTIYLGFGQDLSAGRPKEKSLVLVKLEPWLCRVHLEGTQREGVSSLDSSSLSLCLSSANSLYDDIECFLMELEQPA
GAAGATTTCAGACTGGAGACGTGCTAG: -0.281 z-score
TCATACTTGTGTCTAGAACTGTGCTAG: 0.92 z-score
GACGGTTTCGGTCTCGCGACGTGCTAG: 6.62 z-score
CTAGATATCAGTCTCGATTAGTGCTAG: 0.665 z-score
GACGAACTGGGGTATCGAGTCGTGCTA: 0.442 z-score
TTGCCAATGCTTCTGGTCTTGTGCTAG: 0.456 z-score
CCAGGGACAAAGCGGTGCGAGTGCTAG: -1.3 z-score
GACGGTTCAGGTTTCGGGACGTGCTAG: 2.56 z-score
GACGGACTGCTACTGTTGACGTGCTAG: 0.183 z-score
GACGGTATCGACTTTCGGGCCGTGCTA: 2.04 z-score
TTGAGTCTTCTCCTCTAGGTGTGCTAG: 0.582 z-score
GTCGATTTCGGGACTGGAGACGTGCTA: 2.2 z-score
TTAGGACTGCTTTTCCGTTAGTGCTAG: 1.14 z-score

Study 2 — target: CCNE2, cyclin fold, Cln2 fusion (human); method: yeast growth competition, sequencing; sample: yeast; setting: strong parent motif; reference: not given; reading: higher = stronger binding; endpoint: normalised enrichment score
Parent: GMNC docking peptide (human); KNAKRNLSSEFAN
KNAKRVLSSEFAN [N6V]: 0.211
KNAKRNDSSEFAN [L7D]: 0.644
KNEKRNLSSEFAN [A3E]: 0.246
KWAKRNLSSEFAN [N2W]: 0.776
KNAKRNLSSKFAN [E10K]: 0.431
KMAKRNLSSEFAN [N2M]: 0.875
KNAKRNQSSEFAN [L7Q]: 0.159
KNAKRNLSSTFAN [E10T]: 0.779
KNAKRNLSSEFGN [A12G]: 0.935
KNAKRNLSHEFAN [S9H]: 1.8
KNAKRNLSSESAN [F11S]: 0.352
KNAKRNLSWEFAN [S9W]: 1.82
KNAKRNLSVEFAN [S9V]: 1.52
KNAKRNLSSEMAN [F11M]: 0.834

Study 3 — method: universal PBM; molecule type: double-stranded DNA, one strand shown; sample: in vitro; tested at: 600 nM; reading: higher = stronger binding; endpoint: E-score
Target: Sal-like protein 4, full length isoform A (SALL4, Homo sapiens, UniProt Q9UJQ4, residues 1-1053)
Sequence of UniProt Q9UJQ4 (whole entry, looked up): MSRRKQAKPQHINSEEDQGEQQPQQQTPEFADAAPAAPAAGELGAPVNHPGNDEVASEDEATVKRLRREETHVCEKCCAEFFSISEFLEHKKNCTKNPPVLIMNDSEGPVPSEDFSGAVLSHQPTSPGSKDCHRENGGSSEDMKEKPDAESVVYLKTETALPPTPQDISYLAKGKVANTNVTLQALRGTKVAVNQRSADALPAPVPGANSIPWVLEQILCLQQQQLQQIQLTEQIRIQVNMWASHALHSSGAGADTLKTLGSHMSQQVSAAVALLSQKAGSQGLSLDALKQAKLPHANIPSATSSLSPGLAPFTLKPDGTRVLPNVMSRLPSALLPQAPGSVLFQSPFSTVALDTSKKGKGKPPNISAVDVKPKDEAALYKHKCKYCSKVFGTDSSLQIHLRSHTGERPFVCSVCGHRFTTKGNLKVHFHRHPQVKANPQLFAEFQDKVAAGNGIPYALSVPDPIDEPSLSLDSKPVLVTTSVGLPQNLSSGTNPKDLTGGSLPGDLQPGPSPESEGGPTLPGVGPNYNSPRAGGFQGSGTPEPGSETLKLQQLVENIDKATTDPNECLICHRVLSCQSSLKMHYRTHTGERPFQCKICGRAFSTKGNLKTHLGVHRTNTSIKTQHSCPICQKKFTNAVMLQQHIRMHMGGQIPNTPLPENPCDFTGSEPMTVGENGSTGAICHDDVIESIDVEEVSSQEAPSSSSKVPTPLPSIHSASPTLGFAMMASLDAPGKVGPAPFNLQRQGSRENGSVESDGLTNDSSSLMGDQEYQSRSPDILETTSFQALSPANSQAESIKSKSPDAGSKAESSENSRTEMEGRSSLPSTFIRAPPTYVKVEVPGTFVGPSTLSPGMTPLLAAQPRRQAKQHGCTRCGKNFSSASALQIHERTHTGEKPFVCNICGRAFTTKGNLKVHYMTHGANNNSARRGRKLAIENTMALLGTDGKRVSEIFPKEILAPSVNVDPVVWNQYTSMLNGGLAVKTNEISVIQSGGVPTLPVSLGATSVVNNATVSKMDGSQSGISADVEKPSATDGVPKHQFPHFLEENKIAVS
Setting: 8-mer, flanks averaged, mean of replicates
GGCTGACA: -0.101
GAGTATGC: 0.0756
ATCTTTCA: 0.169
CGAAACTC: -0.191
AAAGGAGT: 0.0701
CACAGAGA: -0.00307
CATTGAGA: 0.145
GCGTAAGA: 0.0153
CACTGCTC: -0.0907
ATGCGAAA: 0.169
ACCAGGAC: -0.128
CAGCTGGA: -0.152
AGCTGGGC: -0.298
GGGTGAAA: 0.0301
GGCGCACC: -0.383
GAATCAAA: 0.0464
CCGCCTGA: -0.376
TACGCACA: 0.122
TGAGACCA: -0.0906
TGCTTACA: 0.0141
AGTTCAAT: 0.096
CCCCTCTC: -0.323
CCACACCG: -0.253
CCTCGCCG: -0.344
GTACCGTA: 0.00312

Study 4 — method: protein binding microarray; molecule type: double-stranded DNA, one strand shown; sample: in vitro; tested at: not given; reference: not given; reading: higher = stronger binding; endpoint: E-score
Target: Histone acetyltransferase KAT6A, winged helix 2, GST fusion (KAT6A, Homo sapiens, UniProt Q92794, residues 85-181)
Setting: 8-mer, flanks averaged, mean of 2 arrays, mostly near background
Residues (chain): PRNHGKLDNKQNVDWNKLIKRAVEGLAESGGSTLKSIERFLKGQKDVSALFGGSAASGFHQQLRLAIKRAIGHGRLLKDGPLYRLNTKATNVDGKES
CGAGGCTA: -0.00552
GGGGGTAA: -0.0589
ATTGTGGC: 0.0321
CAATCCGG: 0.134
AAGACAGT: -0.0159
AACAGTCG: -0.05
ATTACTGG: -0.0977
TAGCCGAA: -0.0799
ACTTTCCG: -0.125
CGGCACCG: 0.236
AAGATTGT: -0.0908
TCCGTAAA: 0.0492
GGGGCGGA: 0.147
AGTTAGAT: -0.0455
CGAAGACG: 0.0301
CTTCCTGA: 0.147
TGCTAACA: 0.206
ATCTACGC: 0.162
GTTTACCA: 0.00951
GTATCGAA: -0.0205
CGGACGCC: 0.184
GAAATTTC: -0.106
GTATAGAC: -0.105
ATCGGCTC: 0.0689
ACAAATGG: -0.115

Study 5 — method: DHFR PCA, deep sequencing; sample: yeast; with: (+)-ABA 0.11 µM; reference: wild-type fitted maximum; reading: higher = stronger binding; endpoint: relative binding score
Target: ABI1, truncated, D143A, DHFR fusion (Arabidopsis thaliana)
Setting: methotrexate growth selection, single substitutions
Parent: PYL1, truncated, DHFR fusion (Arabidopsis thaliana); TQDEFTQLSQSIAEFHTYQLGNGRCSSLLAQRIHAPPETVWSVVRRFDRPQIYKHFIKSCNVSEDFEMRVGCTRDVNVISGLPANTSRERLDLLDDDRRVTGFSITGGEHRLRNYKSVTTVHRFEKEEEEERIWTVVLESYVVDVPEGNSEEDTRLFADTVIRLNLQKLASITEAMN; partner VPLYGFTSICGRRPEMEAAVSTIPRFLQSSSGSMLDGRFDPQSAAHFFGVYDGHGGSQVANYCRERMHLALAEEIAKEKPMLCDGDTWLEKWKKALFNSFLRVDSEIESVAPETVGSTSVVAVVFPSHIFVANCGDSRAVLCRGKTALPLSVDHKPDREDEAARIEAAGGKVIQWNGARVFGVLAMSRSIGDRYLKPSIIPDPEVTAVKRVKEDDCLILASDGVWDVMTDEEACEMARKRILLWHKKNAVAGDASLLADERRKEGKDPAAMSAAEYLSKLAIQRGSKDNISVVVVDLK
E174I: -1.41%
I33A: 3.11%
S140P: 6.15%
Y115L: -2.69%
I105T: -9.35%
L169K: -5.41%
T173S: 25.9%
L28A: 1.13%
R69Q: 35.9%
E64C: 15.2%
R49W: -2.38%
R24A: 9.67%
A158E: -5.9%
K126R: 49.8%
S9W: 19.2%
V136A: 5.38%
E89A: -5.59%
H122L: -5.54%
S140L: 2.64%
L20D: 28.9%
N77D: 36.5%
I172W: -4.49%

Study 6 — target: JDP2, bZIP domain (human); method: DHFR protein complementation; sample: yeast; reference: wild-type JUN-FOS pair; reading: higher = stronger binding; endpoint: binding fitness
Setting: single substitutions, most at no-binding floor
Parent: JUN, bZIP domain (human); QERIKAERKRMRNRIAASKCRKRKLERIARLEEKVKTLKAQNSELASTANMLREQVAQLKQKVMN; partner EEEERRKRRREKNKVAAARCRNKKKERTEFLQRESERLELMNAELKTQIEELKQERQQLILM
V35A: 0.0675 natural log
A46R: 0.255 natural log
I28K: 0.299 natural log
L31N: 0.097 natural log
R30E: 0.339 natural log
A29W: 0.185 natural log
K36P: -0.277 natural log
E33P: -0.214 natural log
V35L: 0.217 natural log
L59W: 0.141 natural log
Q55I: 0.235 natural log
S47L: 0.242 natural log
E32S: 0.252 natural log
E32A: 0.464 natural log
R53C: 0.194 natural log
L31P: -0.0193 natural log
K36D: 0.267 natural log
L52R: -0.66 natural log
V56A: -0.0182 natural log
A40Q: 0.403 natural log
R53P: -0.939 natural log
A46E: 0.286 natural log
K39L: 0.28 natural log
N42G: 0.263 natural log
R30W: 0.286 natural log

Study 7 — target: UBE2N UBC core domain (UniProt P61088); method: yeast two-hybrid; sample: yeast; setting: mostly zero background; reference: not given; reading: higher = stronger interaction; endpoint: lacZ reporter activity
B1: RNF103 RING domain (UniProt O00237); chain WPADMLHCTECVVCLENFENGCLLMGLPCGHVFHQNCIVMWLAGGRHCCPVCRWPSYKKKQPY
B2: RNF6 RING domain (UniProt Q9Y252); chain NSIDSELGKICSVCISDYVTGNKLRQLPCMHEFHIHCIDRWLSENCTCPICRQPVLGSNIAN
B3: ZMYND11 RING domain (UniProt Q15326); chain DEIDWETENHDWYCFECHLPGEVLICDLCFRVYHSKCLSDEFRLRDSSSPWQCPVCRSIKKKNTNKQEM
B4: BFAR RING domain (UniProt Q9NZS9); chain GPQISVSEFSCHCCYDILVNPTTLNCGHSFCRHCLALWWASSKKTECPECREKWEGFPKVS
B5: ZNRF4 RING domain (UniProt Q8WWF5); chain VRTFTWHNDLCAICLDEYEEGDQLKILPCSHTYHCKCIDPWFSQAPRRSCPVCKQSVAATEDSF
B6: ARIH2 RING domain (UniProt O95376); chain HVPTSHPPHHCAVCMQFVRKENLLSLACQHQFCRSCWEQHCSVLVKDGVGVGVSCMAQDCPLRTPEDFVF
Construct (chain): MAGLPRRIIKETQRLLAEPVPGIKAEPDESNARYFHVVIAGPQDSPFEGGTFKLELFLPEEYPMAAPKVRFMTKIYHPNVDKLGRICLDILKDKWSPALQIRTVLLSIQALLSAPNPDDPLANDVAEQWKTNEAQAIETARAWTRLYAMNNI
ASEEEFQFLRCQQCQAEAKCPKLLPCLHTLCSGCLEASGMQCPICQAPWPLGADTP (PML RING domain (UniProt P29590)): 0
LEALSSDFLACKICLEQLRAPKTLPCLHTYCQDCLAQLADGGRVRCPECRETVPVPPEGV (TRIM56 RING domain (UniProt Q9BRZ2)): 0
B1 (RNF103 RING domain): 16800
B2 (RNF6 RING domain): 0
DDVLTKDAGECVICLEELLQGDTIARLPCLCIYHKSCIDSWFEVNRSCPEHPAD (ZNRF1 RING domain (UniProt Q8ND25)): 12600
B3 (ZMYND11 RING domain): 0
B4 (BFAR RING domain): 0
B5 (ZNRF4 RING domain): 9660
B6 (ARIH2 RING domain): 0

A few entries again (study 1):
GAAGATTTCAGACTGGAGACGTGCTAG: -0.281 z-score
TCATACTTGTGTCTAGAACTGTGCTAG: 0.92 z-score
GACGGTTTCGGTCTCGCGACGTGCTAG: 6.62 z-score
CTAGATATCAGTCTCGATTAGTGCTAG: 0.665 z-score
GACGAACTGGGGTATCGAGTCGTGCTA: 0.442 z-score
TTGCCAATGCTTCTGGTCTTGTGCTAG: 0.456 z-score
CCAGGGACAAAGCGGTGCGAGTGCTAG: -1.3 z-score
GACGGTTCAGGTTTCGGGACGTGCTAG: 2.56 z-score
GACGGACTGCTACTGTTGACGTGCTAG: 0.183 z-score
GACGGTATCGACTTTCGGGCCGTGCTA: 2.04 z-score
TTGAGTCTTCTCCTCTAGGTGTGCTAG: 0.582 z-score
GTCGATTTCGGGACTGGAGACGTGCTA: 2.2 z-score
TTAGGACTGCTTTTCCGTTAGTGCTAG: 1.14 z-score
